Measured values pooled from the literature.
Protocols differ between the studies behind these lines. ± gives the spread as reported.

CN(C)CCN(Cc1ccccc1)C(=O)c1cc(-c2ccc(F)cc2)n2nc(C(C)(C)C)cc2n1  Aβ plaque area (Tg6799 mouse, cortex; dose not given, 4 months; reference: vehicle): no effect
COC[C@@H](NC(C)=O)C(=O)NCc1ccc(OCc2cccc(OC(F)(F)F)c2)cc1  ED50 (maximal electroshock seizure test; mouse; ip, time of peak effect): 12 mg/kg
CC[C@H](C)[C@H](NC(=O)[C@H](CCCCN)NC(=O)CNC(=O)[C@H](CC(C)C)NC(=O)[C@H](Cc1ccccc1)NC(=O)[C@H](CCCCN)NC(=O)[C@H](CO)NC(=O)[C@H](Cc1ccccc1)NC(=O)[C@H](Cc1c[nH]c2ccccc12)NC(=O)[C@H](CCC(N)=O)NC(=O)[C@@H](NC(=O)[C@H](Cc1ccccc1)NC(=O)CCCCCNC(=O)CN1CCN(CC(=O)O)CCN(CC(=O)O)CCN(CC(=O)O)CC1)C(C)C)C(=O)N[C@@H](CCC(=O)O)C(=O)N1CCC[C@H]1C(=O)N[C@@H](CC(=O)O)C(=O)N[C@H](C(=O)N[C@@H](CO)C(=O)N[C@@H](CCC(N)=O)C(=O)N[C@H](C(=O)N[C@@H](CCC(N)=O)C(=O)N[C@@H](CC(=O)O)C(=O)N1CCC[C@H]1C(=O)N[C@@H](CC(N)=O)C(=O)N[C@@H](CC(=O)O)C(=O)N[C@@H](CCC(N)=O)C(=O)N[C@@H](Cc1ccc(O)cc1)C(=O)N[C@@H](CCC(=O)O)C(=O)N1CCC[C@H]1C(=O)N[C@@H](Cc1ccccc1)C(=O)O)C(C)C)C(C)C [copper-64 labelled]  lung uptake (PET/CT; mice, LPS lung injury; dose not given, 4 d, outcome: increased, together with: LPS 0.1 or 3 mg/kg intratracheal; reference: vehicle): increased
CC(C)C[C@H](NC(=O)[C@H](C)NC(=O)CNC(=O)[C@H](CO)NC(=O)CNC(=O)[C@H](CCCNC(=N)N)NC(=O)[C@H](CCCNC(=N)N)NC(=O)[C@H](CCCNC(=N)N)NC(=O)[C@H](CCC(N)=O)NC(=O)[C@H](CCCNC(=N)N)NC(=O)[C@H](CCCNC(=N)N)NC(=O)[C@H](CCCCN)NC(=O)[C@H](CCCCN)NC(=O)[C@H](CCCNC(=N)N)NC(=O)CNC(=O)[C@@H](N)Cc1ccc(O)cc1)C(=O)N[C@@H](CO)C(=O)N[C@H](C(=O)N[C@@H](CCC(=O)O)C(=O)N[C@@H](CCCNC(=N)N)C(=O)O)[C@@H](C)O  infarct size reduction (TTC staining; isolated rat heart; concentration not given, given during reperfusion only; reference: control peptides): ~70%
C[C@H](NC(=O)[C@H](CCC(N)=O)NC(=O)[C@H](C)NC(=O)[C@H](CCCCN)NC(=O)[C@H](CCC(N)=O)NC(=O)[C@H](C)NC(=O)[C@H](CCCCN)NC(=O)[C@H](CCC(N)=O)NC(=O)[C@H](C)NC(=O)[C@H](CCC(N)=O)NC(=O)[C@H](CCCCN)NC(=O)[C@H](C)NC(=O)[C@H](CCC(N)=O)NC(=O)[C@H](CCCCN)NC(=O)[C@H](C)NC(=O)[C@H](CCC(N)=O)NC(=O)[C@H](C)NC(=O)[C@H](CCCCN)NC(=O)[C@H](CCC(N)=O)NC(=O)[C@H](C)NC(=O)[C@H](CCCCN)NC(=O)[C@H](CO)NC(=O)[C@H](Cc1ccc(O)cc1)NC(=O)CNC(=O)CNC(=O)CN)C(=O)N[C@@H](CCCCN)C(=O)N[C@@H](CCC(N)=O)C(=O)N[C@@H](C)C(=O)N[C@@H](CCCCN)C(=O)N[C@@H](CCC(N)=O)C(=O)O  binding ratio (Aβ(1-40) fibrils; 1 h, room temperature; reference: 1 M NaCl over PBS): 0.57
CCN(CCCCOc1ccc(CCC(=O)N2CCC(Cc3ccccc3)CC2)cc1OC)Cc1ccccc1  protein level (decrease, ELISA, item: TNF-α; APP/PS1 transgenic mice, cerebral cortex; dose not given): decreased
COc1ccc([N+](=O)[O-])cc1NC(=O)CCC(=O)[O][Zn][O]C(=O)CCC(=O)Nc1cc([N+](=O)[O-])ccc1OC.c1ccncc1  inhibition (ABTS scavenging; 500 µg/mL): 75.4%
CCOP(=O)(OCC)OCCCCOC(=O)CC1=C(C)C(=Cc2ccc([S+](C)[O-])cc2)c2ccc(F)cc21 (stereo not drawn)  protein level reduction (immunoblotting, item: phospho-EGFR; nude mice, orthotopic A549 tumour, tumour; inhalation, dose not given; reference: vehicle): 58%
C[C@H](NC(=O)[C@H](CCC(N)=O)NC(=O)[C@H](CCCCN)NC(=O)[C@H](C)NC(=O)[C@@H]1CCCN1C(=O)[C@H](C)NC(=O)[C@H](CCCCN)NC(=O)[C@H](CCC(N)=O)NC(=O)[C@H](C)NC(=O)[C@H](CCCCN)NC(=O)[C@H](CCC(N)=O)NC(=O)[C@@H]1CCCN1C(=O)[C@H](CCC(N)=O)NC(=O)[C@H](CCCCN)NC(=O)[C@H](C)NC(=O)[C@H](CCC(N)=O)NC(=O)[C@H](CCCCN)NC(=O)[C@H](C)NC(=O)[C@@H]1CCCN1C(=O)[C@H](C)NC(=O)[C@H](CCCCN)NC(=O)[C@H](CCC(N)=O)NC(=O)[C@H](C)NC(=O)[C@H](CCCCN)NC(=O)[C@H](CO)NC(=O)[C@H](Cc1ccc(O)cc1)NC(=O)CNC(=O)CNC(=O)CN)C(=O)N[C@@H](CCCCN)C(=O)N[C@@H](CCC(N)=O)C(=O)O  binding ratio (Aβ(1-40) fibrils; 1 h, room temperature; reference: 1 M NaCl over PBS): 0.01
CC[C@H](C)[C@H](NC(=O)[C@@H](NC(=O)[C@H](CC(=O)O)NC(C)=O)[C@@H](C)O)C(=O)N[C@@H](CCCNC(=N)N)C(=O)N[C@@H](CC(C)C)C(=O)N[C@@H](CC(C)C)C(=O)N[C@@H](Cc1ccccc1)C(=O)N[C@@H](CCC(N)=O)C(=O)N[C@@H](CC(C)C)C(=O)N[C@@H](CCSC)C(=O)N[C@@H](CCCNC(=N)N)C(=O)N1CCC[C@H]1C(=O)N1CCC[C@H]1C(=O)N[C@@H](CC(N)=O)C(=O)N[C@@H](CCSC)C(=O)N[C@H](C(=O)N1CCC[C@H]1C(=O)N[C@@H](C)C(=O)N[C@H](C(=O)N[C@@H](CC(N)=O)C(=O)N[C@@H](C)C(N)=O)C(C)C)[C@@H](C)O  α4β7− CCR9+ cells (item: HA-19 tetramer; antigen-experienced tetramer+ CD4 T cells, healthy adults, HLA-DRB1*0101; dose not given): 4%
CC(C)[C@H](N)C(=O)N[C@@H](Cc1ccc(O)cc1)C(=O)N[C@@H](CCCCN)C(=O)N[C@H](C(=O)N[C@@H](CCCCN)C(=O)N[C@H](C(=O)N[C@@H](CCCCN)C(=O)N[C@H](C(=O)N[C@@H](CCCCN)C(=O)N[C@H](C(=O)N[C@@H](CCCCN)C(=O)N[C@H](C(=O)N[C@@H](CCCCN)C(=O)N[C@H](C(=O)N[C@@H](CCCCN)C(=O)N[C@H](C(=O)N[C@@H](CCCCN)C(=O)N[C@H](C(=O)O)[C@@H](C)O)C(C)C)[C@@H](C)O)C(C)C)[C@@H](C)O)C(C)C)[C@@H](C)O)C(C)C  bound fraction (binding; AA amyloid mouse liver homogenate; 1 h, room temperature): 92%
C=C(NC(=O)C(=C)NC(=O)c1csc(C2=NC3c4csc(n4)C4NC(=O)c5csc(n5)C(C(C)(O)C(C)O)NC(=O)C5CSC(=N5)C(=CC)NC(=O)C(C(C)O)NC(=O)c5csc(n5)C3(CC2)NC(=O)C(C)NC(=O)C(=C)NC(=O)C(=CC)NC(=O)C(C(C)CC)NC2C=Cc3c(C(C)O)cc(nc3C2O)C(=O)OC4C)n1)C(N)=O (stereo not drawn)  IC50 (protein synthesis, coupled transcription-translation, item: luciferase; Escherichia coli S30 extract; 1 h, 37 °C): 0.35 ± 0.04 µM
COc1ccc2c3c([nH]c2c1)CCN(C)CC3  duration of effect (heroin self-administration; Wistar rat; intraperitoneal, 40 mg/kg, single): 12 to 14 days
CC(C)C[C@@H]1NC(=O)[C@H](C(C)C)NC(=O)[C@H](CO)NC(=O)CNC(=O)CNC(=O)[C@H](CCCNC(=N)N)NC(=O)[C@@H]2CCCN2C(=O)[C@@H](NC(=O)CC[C@H](NC(=O)c2ccc(N(C)Cc3cnc4nc(N)nc(N)c4n3)cc2)C(=O)O)C(C)(C)SSC[C@@H](C(=O)O)NC(=O)CNC(=O)[C@H]([C@@H](C)O)NC(=O)[C@H](C(C)C)NC1=O  liver weight (rat adjuvant arthritis; iv, 0.2 mg/kg once daily, day 14): 6.2 ± 0.172 g
CCOC(=O)Nc1ccc2c(c1)CN1C(=S)N(c3ccc(C#N)c(C(F)(F)F)c3)C(=O)C1C2 (stereo not drawn)  reduction of tumour weight (mouse, 22Rv1 orthotopic xenograft; intravenous, 25 mg/kg/day; reference: vehicle): 49.4%
Cc1ccc(/C=C/C(=O)O)cc1-c1cc2c(cc1C)C(C)(C)CCC2(C)C  log2 fold change (RNA sequencing, item: Aurkb mRNA; rat, brain; dose not given, 24 h, single dose; reference: vehicle): 0.43
CSCC[C@H](NC(=O)CNC(=O)[C@H](CC(=O)O)NC(=O)[C@@H](NC(=O)[C@@H](NC(=O)[C@@H](NC(=O)CNC(=O)[C@H](CCC(N)=O)NC(=O)[C@H](CCSC)NC(=O)[C@H](CC(=O)O)NC(=O)[C@H](C)NC(=O)[C@H](C)NC(=O)[C@@H](NC(=O)[C@H](CO)NC(=O)[C@@H](N)CC(C)C)[C@@H](C)O)C(C)C)C(C)C)[C@@H](C)O)C(=O)N[C@@H](C)C(=O)N[C@@H](CO)C(=O)NCC(=O)N[C@@H](CC(C)C)C(=O)N[C@@H](CC(=O)O)C(=O)N[C@@H](CCCCN)C(=O)N[C@@H](CC(=O)O)C(=O)N[C@@H](Cc1ccc(O)cc1)C(=O)N[C@@H](CC(C)C)C(=O)N[C@@H](CCCCN)C(=O)N1CCC[C@H]1C(=O)N[C@@H](CC(=O)O)C(=O)N[C@@H](CC(=O)O)C(=O)O  median survival, living patients (p53-positive advanced solid tumour patients; dose not given, three living patients): 140 weeks
O=C(O)/C=C/c1ccc(O)cc1  DPPH radical scavenging (125 µg/mL): 59.5 ± 0.4%

Repeated from above:
C[C@H](NC(=O)[C@H](CCC(N)=O)NC(=O)[C@H](C)NC(=O)[C@H](CCCCN)NC(=O)[C@H](CCC(N)=O)NC(=O)[C@H](C)NC(=O)[C@H](CCCCN)NC(=O)[C@H](CCC(N)=O)NC(=O)[C@H](C)NC(=O)[C@H](CCC(N)=O)NC(=O)[C@H](CCCCN)NC(=O)[C@H](C)NC(=O)[C@H](CCC(N)=O)NC(=O)[C@H](CCCCN)NC(=O)[C@H](C)NC(=O)[C@H](CCC(N)=O)NC(=O)[C@H](C)NC(=O)[C@H](CCCCN)NC(=O)[C@H](CCC(N)=O)NC(=O)[C@H](C)NC(=O)[C@H](CCCCN)NC(=O)[C@H](CO)NC(=O)[C@H](Cc1ccc(O)cc1)NC(=O)CNC(=O)CNC(=O)CN)C(=O)N[C@@H](CCCCN)C(=O)N[C@@H](CCC(N)=O)C(=O)N[C@@H](C)C(=O)N[C@@H](CCCCN)C(=O)N[C@@H](CCC(N)=O)C(=O)O  binding ratio (Aβ(1-40) fibrils; 1 h, room temperature; reference: 1 M NaCl over PBS): 0.57
CCN(CCCCOc1ccc(CCC(=O)N2CCC(Cc3ccccc3)CC2)cc1OC)Cc1ccccc1  protein level (decrease, ELISA, item: TNF-α; APP/PS1 transgenic mice, cerebral cortex; dose not given): decreased
